Published values of several laboratories.
Numbered parts are unrelated; each lists some results of a single study. Changes are numbered by the printed parent chain.

Set 1 — target: CCNA1, cyclin fold, Cln2 fusion (human); technique: yeast growth competition, sequencing; matrix: yeast; setting: weak parent motif; baseline: not given; reading: higher = stronger binding
Starting sequence: CDC6 docking peptide (human); TLKGRRLVFDNQL
For `L2G`, “normalised enrichment score” read 0.112.
Under “normalised enrichment score”, `Q12F` is recorded as -0.121.
`D10V` — result for “normalised enrichment score”: -0.202.
Under “normalised enrichment score”, `N11Y` is recorded as 0.382.
For `K3C`, “normalised enrichment score” read 0.212.
`F9V` — result for “normalised enrichment score”: -0.176.
`N11W`: “normalised enrichment score” 0.727.
`R5P` — result for “normalised enrichment score”: 0.197.

Set 2 — technique: protein-binding microarray; form: double-stranded DNA, one strand shown; matrix: in vitro; concentration: not given; reading: higher = stronger binding
Target: Protein max, full length (MAX, Homo sapiens, UniProt P61244-2, residues 1-151)
Setting: k-mer, scored over probes, only values ≥0.25
`ATGTGCCA` gave an E-score of 0.314.
`GCATGTAA` has an E-score of 0.328.
For `ACACGCCA`, the E-score was 0.314.
The E-score of `AAAACACG` is reported as 0.362.
`CTCATGTC` has an E-score of 0.33.
For `CATGCAGC`, the E-score was 0.35.
For `ACATATGA`, the E-score was 0.287.
The E-score of `CGAGCACA` is reported as 0.335.

Single results of other studies
For `PhoQ, residues 284 288 289 292 302 303 SLANIV`, the fold induction was 4.36 (PhoP, residues 12 14 15 18 19 FWNTL (Escherichia coli, UniProt P23836); Sort-seq, item: YFP reporter; E. coli; PhoQ-PhoP variant library, together with: 10 µM Mg2+; baseline: high Mg2+ state, higher = stronger signaling).
`CC(C)n1cnc(-c2ccc(F)cc2)c1-c1ncc(C(=O)Nc2ccc(N3CCN(C)CC3)cc2)[nH]1`: “adverse event incidence” 0% (phase 2a trial, item: appendicitis; idiopathic pulmonary fibrosis patients; 30 mg once daily, grade 2).

Excerpt of the above (single results of other studies):
`CC(C)n1cnc(-c2ccc(F)cc2)c1-c1ncc(C(=O)Nc2ccc(N3CCN(C)CC3)cc2)[nH]1`: “adverse event incidence” 0% (phase 2a trial, item: appendicitis; idiopathic pulmonary fibrosis patients; 30 mg once daily, grade 2).
For `PhoQ, residues 284 288 289 292 302 303 SLANIV`, the fold induction was 4.36 (PhoP, residues 12 14 15 18 19 FWNTL (Escherichia coli, UniProt P23836); Sort-seq, item: YFP reporter; E. coli; PhoQ-PhoP variant library, together with: 10 µM Mg2+; baseline: high Mg2+ state, higher = stronger signaling).
